Experimental data gathered from unrelated publications.
“And” joins repeats or separate records; there may be more than shown. Numbers after ± are the reported error. Non-standard residues stand in square brackets, D forms with d. Square brackets hold non-standard residues; d marks the D form. Ends that are not written are not given here. No end group written: not given here. * marks the point of attachment. *: point of attachment.
RPA1: RPA1 1-120 (Homo sapiens, UniProt P27694)
Chain of UniProt P27694 (whole entry, looked up): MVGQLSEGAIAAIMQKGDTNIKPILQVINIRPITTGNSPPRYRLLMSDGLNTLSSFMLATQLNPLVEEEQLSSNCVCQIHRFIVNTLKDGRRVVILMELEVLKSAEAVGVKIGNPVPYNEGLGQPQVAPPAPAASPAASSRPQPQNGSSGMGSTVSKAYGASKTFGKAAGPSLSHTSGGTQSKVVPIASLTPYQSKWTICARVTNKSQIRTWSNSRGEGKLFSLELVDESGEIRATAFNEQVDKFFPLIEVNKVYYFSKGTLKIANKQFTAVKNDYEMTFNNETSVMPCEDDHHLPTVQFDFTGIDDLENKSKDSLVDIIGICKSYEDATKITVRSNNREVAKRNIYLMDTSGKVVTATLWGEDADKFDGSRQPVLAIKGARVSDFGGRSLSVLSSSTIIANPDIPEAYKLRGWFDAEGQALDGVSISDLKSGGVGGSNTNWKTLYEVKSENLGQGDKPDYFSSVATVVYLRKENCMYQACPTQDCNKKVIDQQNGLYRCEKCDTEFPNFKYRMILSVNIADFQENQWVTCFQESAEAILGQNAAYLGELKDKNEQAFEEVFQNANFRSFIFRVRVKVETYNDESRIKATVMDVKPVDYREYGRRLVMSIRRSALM
T1: BCR GAP domain; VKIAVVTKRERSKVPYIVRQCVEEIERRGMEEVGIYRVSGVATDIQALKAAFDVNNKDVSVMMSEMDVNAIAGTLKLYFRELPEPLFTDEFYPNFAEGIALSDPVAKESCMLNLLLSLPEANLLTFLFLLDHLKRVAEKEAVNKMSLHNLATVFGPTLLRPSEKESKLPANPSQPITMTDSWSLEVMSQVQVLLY
B1: Tiam1 PH-CC-Ex domain; chain AAQGTVRKAGALAVKNFLVHKKNKKVESATRRKWKHYWVSLKGCTLFFYETDGRSGIDHNSVPKHAVWVENSIVQAVPEHPKKDFVFCLSNSLGDAFLFQTTSQTELENWITAIHSACAAAVARHHHKEDTLRLLKSEIKKLEQKIDMDEKMKKMGEMQLSSVTDSKKKKTILDQIFVWEQNLEQFQMDLFRFRCYLASLQGGELPNPKRLLAFASRPTKVAMGRLGIFSVSSFHALVAARTGEIGVRRRTQAMSRSASKRRSRFSSLWGLDTT
B2: UGT1A9 (Homo sapiens, UniProt O60656); chain GKLLVVPMDGSHWFTMRSVVEKLILRGHEVVVVMPEVSWQLGRSLNCTVKTYSTSYTLEDLDREFKAFAHAQWKAQVRSIYSLLMGSYNDIFDLFFSNCRSLFKDKKLVEYLKESSFDAVFLDPFDNCGLIVAKYFSLPSVVFARGILCHYLEEGAQCPAPLSYVPRILLGFSDAMTFKERVRNHIMHLEEHLLCHRFFKNALEIASEILQTPVTEYDLYSHTSIWLLRTDFVLDYPKPVMPNMIFIGGINCHQGKPLPMEFEAYINASGEHGIVVFSLGSMVSEIPEKKAMAIADALGKIPQTVLWRYTGTRPSNLANNTILVKWLPQNDLLGHPMTRAFITHAGSHGVYESICNGVPMVMMPLFGDQMDNAKRMETKGAGVTLNVLEMTSEDLENALKAVINDKSYKENIMRLSSLHKDRPVEPLDLAVFWVEFVMRHKGAPHLRPAAHDLTWYQYHSLDVIGFLLAVVLTVAFITFKCCAYGYRKCLGKKGRVKKAHKSKTH
B3: FGA/FGB/FGG 20-644 (Homo sapiens); chain 1 ADSGEGDFLAEGGGVRGPRVVERHQSACKDSDWPFCSDEDWNYKCPSGCRMKGLIDEVNQDFTNRINKLKNSLFEYQKNNKDSHSLTTNIMEILRGDFSSANNRDNTYNRVSEDLRSRIEVLKRKVIEKVQHIQLLQKNVRAQLVDMKRLEVDIDIKIRSCRGSCSRALAREVDLKDYEDQQKQLEQVIAKDLLPSRDRQHLPLIKMKPVPDLVPGNFKSQLQKVPPEWKALTDMPQMRMELERPGGNEITRGGSTSYGTGSETESPRNPSSAGSWNSGSSGPGSTGNRNPGSSGTGGTATWKPGSSGPGSTGSWNSGSSGTGSTGNQNPGSPRPGSTGTWNPGSSERGSAGHWTSESSVSGSTGQWHSESGSFRPDSPGSGNARPNNPDWGTFEEVSGNVSPGTRREYHTEKLVTSKGDKELRTGKEKVTSGSTTTTRRSCSKTVTKTVIGPDGHKEVTKEVVTSEDGSDCPEAMDLGTLSGIGTLDGFRHRHPDEAAFFDTASTGKTFPGFFSPMLGEFVSETESRGSESGIFTNTKESSSHHPGIAEFPSRGKSSSYSKQFTSSTSYNRGDSTFESKSYKMADEAGSEADHEGTHSTKRGHAKSRPVRGIHTSPLGKPSLSP; chain 2 QGVNDNEEGFFSARGHRPLDKKREEAPSLRPAPPPISGGGYRARPAKAAATQKKVERKAPDAGGCLHADPDLGVLCPTGCQLQEALLQQERPIRNSVDELNNNVEAVSQTSSSSFQYMYLLKDLWQKRQKQVKDNENVVNEYSSELEKHQLYIDETVNSNIPTNLRVLRSILENLRSKIQKLESDVSAQMEYCRTPCTVSCNIPVVSGKECEEIIRKGGETSEMYLIQPDSSVKPYRVYCDMNTENGGWTVIQNRQDGSVDFGRKWDPYKQGFGNVATNTDGKNYCGLPGEYWLGNDKISQLTRMGPTELLIEMEDWKGDKVKAHYGGFTVQNEANKYQISVNKYRGTAGNALMDGASQLMGENRTMTIHNGMFFSTYDRDNDGWLTSDPRKQCSKEDGGGWWYNRCHAANPNGRYYWGGQYTWDMAKHGTDDGVVWMNWKGSWYSMRKMSMKIRPFFPQQ; chain 3 YVATRDNCCILDERFGSYCPTTCGIADFLSTYQTKVDKDLQSLEDILHQVENKTSEVKQLIKAIQLTYNPDESSKPNMIDAATLKSRKMLEEIMKYEASILTHDSSIRYLQEIYNSNNQKIVNLKEKVAQLEAQCQEPCKDTVQIHDITGKDCQDIANKGAKQSGLYFIKPLKANQQFLVYCEIDGSGNGWTVFQKRLDGSVDFKKNWIQYKEGFGHLSPTGTTEFWLGNEKIHLISTQSAIPYALRVELEDWNGRTSTADYAMFKVGPEADKYRLTYAYFAGGDAGDAFDGFDFGDDPSDKFFTSHNGMQFSTWDNDNDKFEGNCAEQDGSGWWMNKCHAGHLNGVYYQGGTYSKASTPNGYDNGIIWATWKTRWYSMKKTTMKIIPFNRLTIGEGQQHHLGGAKQAGDV
B4: DBI (Mus musculus, UniProt P31786); Cy5 label; sequence looked up; chain MSQAEFDKAAEEVKRLKTQPTDEEMLFIYSHFKQATVGDVNTDRPGLLDLKGKAKWDSWNKLKGTSKESAMKTYVEKVDELKKKYGI
B5: PPARG AF-1 1-136 (Homo sapiens, UniProt P37231-1); pS112, pT75; chain MGETLGDSPIDPESDSFTDTLSANISQEMTMVDTEMPFWPTNFGISSVDLSVMEDHSHSFDIKPFTTVDFSSISTPHYEDIPFTRTDPVVADYKYDLKLQEYQSAIKVEPASPPYYSEKTQLYNKPHEEPSNSLMA
B6: asprosin mature (Homo sapiens, UniProt P35555); sequence looked up; chain STNETDASNIEDQSETEANVSLASWDVEKTAIFAFNISHVSNKVRILELLPALTTLTNHNRYLIESGNEDGFFKINQKEGISYLHFTKKKPVAGTYSLQISSTPLYKKKELNQLEDKYDKDYLSGELGDNLKMKIQVLLH
B7: adrenodoxin (Homo sapiens, UniProt P10109); RED dye on amines; sequence looked up; chain SSSEDKITVHFINRDGETLTTKGKVGDSLLDVVVENNLDIDGFGACEGTLACSTCHLIFEDHIYEKLDAITDEENDMLDLAYGLTDRSRLGCQICLTKSMDNMTVRVPETVADARQSIDVGKTS
Chain of UniProt P19099 (whole entry, looked up): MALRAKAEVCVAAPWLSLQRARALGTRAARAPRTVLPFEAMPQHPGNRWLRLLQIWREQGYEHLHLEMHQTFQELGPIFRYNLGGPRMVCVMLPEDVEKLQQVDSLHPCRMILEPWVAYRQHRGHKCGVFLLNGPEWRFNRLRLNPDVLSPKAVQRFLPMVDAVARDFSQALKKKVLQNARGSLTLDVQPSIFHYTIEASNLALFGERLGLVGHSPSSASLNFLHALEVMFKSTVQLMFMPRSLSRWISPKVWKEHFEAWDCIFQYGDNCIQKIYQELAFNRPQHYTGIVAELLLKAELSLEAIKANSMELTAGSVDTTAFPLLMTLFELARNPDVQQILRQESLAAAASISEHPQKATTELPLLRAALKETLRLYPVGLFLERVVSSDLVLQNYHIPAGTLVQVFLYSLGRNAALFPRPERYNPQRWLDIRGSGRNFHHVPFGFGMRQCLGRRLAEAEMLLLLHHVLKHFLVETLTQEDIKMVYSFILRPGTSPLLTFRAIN
Chain of UniProt P32198 (whole entry, looked up): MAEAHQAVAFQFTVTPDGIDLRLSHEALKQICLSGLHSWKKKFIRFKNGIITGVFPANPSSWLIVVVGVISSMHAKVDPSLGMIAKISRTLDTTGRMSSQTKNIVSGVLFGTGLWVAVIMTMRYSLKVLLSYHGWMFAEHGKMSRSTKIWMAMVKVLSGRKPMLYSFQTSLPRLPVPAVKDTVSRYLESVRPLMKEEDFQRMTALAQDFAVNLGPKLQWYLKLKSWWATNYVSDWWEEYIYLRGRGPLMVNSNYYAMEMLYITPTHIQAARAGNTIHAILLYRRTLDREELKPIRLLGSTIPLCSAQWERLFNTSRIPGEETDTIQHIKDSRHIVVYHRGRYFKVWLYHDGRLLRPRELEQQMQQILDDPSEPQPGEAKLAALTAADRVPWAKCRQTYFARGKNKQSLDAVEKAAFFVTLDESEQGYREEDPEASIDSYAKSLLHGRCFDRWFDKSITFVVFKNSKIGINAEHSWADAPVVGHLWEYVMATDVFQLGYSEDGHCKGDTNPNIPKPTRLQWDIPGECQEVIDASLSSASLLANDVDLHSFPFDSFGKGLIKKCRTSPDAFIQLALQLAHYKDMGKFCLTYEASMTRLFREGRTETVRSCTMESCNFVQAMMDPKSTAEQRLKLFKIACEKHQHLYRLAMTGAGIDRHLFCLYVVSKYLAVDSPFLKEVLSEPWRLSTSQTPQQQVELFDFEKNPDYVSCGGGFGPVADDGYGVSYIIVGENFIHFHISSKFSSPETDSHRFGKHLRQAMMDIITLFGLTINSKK
Chain of UniProt P29350 (whole entry, unmodified, looked up): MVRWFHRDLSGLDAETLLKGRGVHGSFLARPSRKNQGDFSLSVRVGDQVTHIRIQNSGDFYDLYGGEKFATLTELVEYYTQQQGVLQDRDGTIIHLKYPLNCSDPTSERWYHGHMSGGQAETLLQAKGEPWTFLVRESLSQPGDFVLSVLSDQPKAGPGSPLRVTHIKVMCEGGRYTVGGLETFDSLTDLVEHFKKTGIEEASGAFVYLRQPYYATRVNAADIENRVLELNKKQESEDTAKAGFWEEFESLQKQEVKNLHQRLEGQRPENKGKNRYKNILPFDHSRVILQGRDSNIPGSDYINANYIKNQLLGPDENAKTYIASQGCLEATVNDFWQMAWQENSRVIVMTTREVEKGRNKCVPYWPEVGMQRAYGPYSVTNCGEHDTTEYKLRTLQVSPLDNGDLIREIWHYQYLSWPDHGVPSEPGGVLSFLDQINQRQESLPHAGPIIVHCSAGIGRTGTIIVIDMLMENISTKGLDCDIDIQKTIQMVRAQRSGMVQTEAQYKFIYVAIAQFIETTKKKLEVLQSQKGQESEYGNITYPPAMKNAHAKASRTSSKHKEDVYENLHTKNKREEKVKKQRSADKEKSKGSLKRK
Chain of UniProt P23468 (whole entry, looked up): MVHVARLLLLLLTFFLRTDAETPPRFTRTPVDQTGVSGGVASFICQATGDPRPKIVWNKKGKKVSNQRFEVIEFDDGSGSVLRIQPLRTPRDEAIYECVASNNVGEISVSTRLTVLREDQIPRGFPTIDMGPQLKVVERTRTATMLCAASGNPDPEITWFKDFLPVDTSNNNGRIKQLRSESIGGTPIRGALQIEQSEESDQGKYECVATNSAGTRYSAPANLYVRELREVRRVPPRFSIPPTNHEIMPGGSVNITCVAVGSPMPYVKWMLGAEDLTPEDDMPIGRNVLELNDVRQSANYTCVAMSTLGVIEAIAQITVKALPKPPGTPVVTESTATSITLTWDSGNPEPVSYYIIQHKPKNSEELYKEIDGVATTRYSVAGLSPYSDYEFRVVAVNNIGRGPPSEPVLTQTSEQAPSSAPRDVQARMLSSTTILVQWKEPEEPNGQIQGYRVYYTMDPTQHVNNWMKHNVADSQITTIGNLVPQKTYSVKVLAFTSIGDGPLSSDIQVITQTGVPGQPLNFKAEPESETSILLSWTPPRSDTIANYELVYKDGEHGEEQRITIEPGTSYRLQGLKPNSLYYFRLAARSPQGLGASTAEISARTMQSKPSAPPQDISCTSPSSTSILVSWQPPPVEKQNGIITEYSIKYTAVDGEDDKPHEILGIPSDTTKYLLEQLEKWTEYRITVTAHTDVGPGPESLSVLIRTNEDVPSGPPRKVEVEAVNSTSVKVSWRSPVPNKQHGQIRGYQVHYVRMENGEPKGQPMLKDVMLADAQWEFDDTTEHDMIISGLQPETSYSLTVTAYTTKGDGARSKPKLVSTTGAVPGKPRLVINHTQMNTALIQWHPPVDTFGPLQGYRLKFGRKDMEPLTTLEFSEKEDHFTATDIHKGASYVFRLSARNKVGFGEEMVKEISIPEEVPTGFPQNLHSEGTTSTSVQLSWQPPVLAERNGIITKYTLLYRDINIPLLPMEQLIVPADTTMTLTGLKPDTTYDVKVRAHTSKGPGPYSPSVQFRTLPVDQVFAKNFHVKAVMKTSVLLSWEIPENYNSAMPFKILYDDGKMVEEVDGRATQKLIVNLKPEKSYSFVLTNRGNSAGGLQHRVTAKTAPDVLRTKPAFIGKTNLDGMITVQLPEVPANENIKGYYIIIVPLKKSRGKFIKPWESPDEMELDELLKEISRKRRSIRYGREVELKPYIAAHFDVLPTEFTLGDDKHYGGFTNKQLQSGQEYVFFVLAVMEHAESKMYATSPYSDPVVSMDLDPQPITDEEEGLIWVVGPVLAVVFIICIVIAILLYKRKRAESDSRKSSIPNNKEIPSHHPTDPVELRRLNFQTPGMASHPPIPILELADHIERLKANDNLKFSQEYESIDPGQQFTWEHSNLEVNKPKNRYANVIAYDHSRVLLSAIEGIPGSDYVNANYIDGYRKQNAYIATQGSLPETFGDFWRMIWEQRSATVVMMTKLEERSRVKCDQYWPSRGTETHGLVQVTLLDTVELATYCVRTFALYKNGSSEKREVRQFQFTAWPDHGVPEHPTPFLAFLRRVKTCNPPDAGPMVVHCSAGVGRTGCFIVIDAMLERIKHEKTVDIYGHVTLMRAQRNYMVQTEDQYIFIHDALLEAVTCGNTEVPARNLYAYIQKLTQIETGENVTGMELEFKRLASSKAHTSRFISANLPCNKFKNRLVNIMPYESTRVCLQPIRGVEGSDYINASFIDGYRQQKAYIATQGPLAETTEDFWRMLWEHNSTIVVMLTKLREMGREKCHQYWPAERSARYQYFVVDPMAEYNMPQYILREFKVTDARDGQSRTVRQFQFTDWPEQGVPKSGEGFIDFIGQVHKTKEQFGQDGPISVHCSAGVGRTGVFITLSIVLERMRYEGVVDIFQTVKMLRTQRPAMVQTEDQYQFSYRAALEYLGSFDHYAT

NDP fragment (Homo sapiens) — Kd (LRP6 β-propeller domains 1-2 (Homo sapiens); AlphaScreen or HTRF): 450 nM
ETDKE[pY][pY]TVKD (JAK1 1029-1039; pY1034/pY1035; pY = N[C@@H](Cc1ccc(OP(=O)(O)O)cc1)C(=O)O) — Kd (PTPN6 243-530 Q252R/C453S (Homo sapiens, UniProt P29350); ITC; peptide; pH 8.0, 25 °C, NaCl 100 mM): 500 ± 100 nM
B1 (Tiam1 PH-CC-Ex domain) — Kd (T1, BCR GAP domain; BLI): 287 nM
GVVEVDAAV[pT]PEERHLSKMQQNGY (APP 659-682 (UniProt P05067-4); pT668; pT = C[C@@H](OP(=O)(O)O)[C@H](N)C(=O)O; sequence looked up) — Kd (PIN1 WW domain 1-53 (Homo sapiens, UniProt Q13526); ITC; peptide; pH 6.9, 25 °C, trans isomer): 27000 nM
ATRIP — Kd (RPA1; fluorescence polarisation; pH 7.5, NaCl 75 mM): 7400 nM
MPIFLDHILNKFWILHYASG (SPAM peptide; C-terminal propargylglycine, ROX label) — Kd (CD274 ectodomain, N-glycosylated (Homo sapiens); fluorescence polarisation; peptide; 100 nM): 67 ± 21 nM
{FITC}-GFID[pS]D[pT]DVEEE-NH2 (MDC1 phosphopeptide; FITC N-terminus, pS5, pT7, C-terminal amide; FITC = O=C1OC2(c3ccc(O)cc3Oc3cc(O)ccc32)c2ccc(NC(=S)*)cc21; pS = N[C@@H](COP(=O)(O)O)C(=O)O; pT = C[C@@H](OP(=O)(O)O)[C@H](N)C(=O)O) — Kd (TOPBP1 641-746 S654A (Homo sapiens, UniProt Q92547); fluorescence polarisation; peptide; NaCl 150 mM): 32000 ± 3000 nM
B2 (UGT1A9) — Vmax/Km (COc1ccc(-c2oc3cc(O)cc(O)c3c(=O)c2OC)cc1OCc1ccccc1; steady-state kinetics; pH 7.4, 37 °C): 1660 µL/min/mg
B3 (FGA/FGB/FGG 20-644) — Kd (ITGA2B/ITGB3 heterodimer (Homo sapiens); radioligand binding; platelets; apparent, without Ca2+ and Mg2+, together with: ADP, Zn2+ 50 µM): 100 nM
Nrxn1 alpha, lacks splice site 4 insert (sequence not shown) — Kd (Clstn3 ectodomain Fc fusion; cell-based binding assay; COS; apparent): 43.7 nM
{FITC}-GFID[pS]D[pT]DVEEE-NH2 (peptide; N-terminal FITC, pS5, pT7, C-terminal amide; FITC = O=C1OC2(c3ccc(O)cc3Oc3cc(O)ccc32)c2ccc(NC(=S)*)cc21; pS = N[C@@H](COP(=O)(O)O)C(=O)O; pT = C[C@@H](OP(=O)(O)O)[C@H](N)C(=O)O) — Kd (TOPBP1 641-746 (Homo sapiens, UniProt Q92547); fluorescence polarisation; peptide; pH 7.5, NaCl 150 mM): 15000 ± 1000 nM
{FITC-Ahx}-DFTADDLEELDTLAS-NH2 (ATRIP residues 54-68; SMILES CC(C)C[C@H](NC(=O)[C@H](CC(=O)O)NC(=O)[C@H](CC(=O)O)NC(=O)[C@H](C)NC(=O)[C@@H](NC(=O)[C@H](Cc1ccccc1)NC(=O)[C@H](CC(=O)O)NC(=O)CCCCCNC(=S)Nc1ccc2c(c1)C(=O)OC21c2ccc(O)cc2Oc2cc(O)ccc21)[C@@H](C)O)C(=O)N[C@@H](CCC(=O)O)C(=O)N[C@@H](CCC(=O)O)C(=O)N[C@@H](CC(C)C)C(=O)N[C@@H](CC(=O)O)C(=O)N[C@H](C(=O)N[C@@H](CC(C)C)C(=O)N[C@@H](C)C(=O)N[C@@H](CO)C(N)=O)[C@@H](C)O; N-terminal FITC-Ahx, C-terminal amide; FITC = O=C1OC2(c3ccc(O)cc3Oc3cc(O)ccc32)c2ccc(NC(=S)*)cc21; Ahx = NCCCCCC(=O)O) — Kd (RPA1; NMR titration; peptide): 15200 nM
B4 (DBI) — Kd (CPT1A 381-469, Cy3 label (Rattus norvegicus, UniProt P32198); FRET; 24 °C): 5 nM
ubiquitin (Saccharomyces cerevisiae, UniProt P0CG63) — Kd (RAD30 fragment (Saccharomyces cerevisiae); SPR; pH 7.4, 25 °C, NaCl 150 mM): 440 ± 50 nM
TNYLFSPNGPIARAW (TNYL-RAW) — Kd (EPHB4 16-539 (Homo sapiens, UniProt P54760); SPR; peptide): 3.06 nM
B5 (PPARG AF-1 1-136) — Kd (PIN1 (Homo sapiens, UniProt Q13526); NMR): 4080 nM and 4440 nM
PNKP fragment (Homo sapiens) — Kd (XRCC1 residues 515-526, pS518/pT519 (Homo sapiens); ITC): 2230 nM
LDYHFGLEEGEGIRDLFD (E2F1 409-426 (Homo sapiens, UniProt Q01094); sequence looked up) — Kd (RB1 55-787 del245-267/del582-642 (UniProt P06400); ITC; pH 8.0, NaCl 100 mM, together with: LxCxE peptide 100 µM): 70 nM
B6 (asprosin mature) — Kd (PTPRD extracellular domain 21-1265, RED-tris-NTA dye label (UniProt P23468); MST): 4.2 nM
RAVTQYLLHLLQKARPTSQ (Clr3 peptide (Schizosaccharomyces pombe)) — Kd (Chp2 chromoshadow domain (Schizosaccharomyces pombe); NMR titration; peptide; pH 7.8, 303 K, KCl 150 mM): > 745000 nM
B7 (adrenodoxin) — Kd (CYP11B2 (Homo sapiens, UniProt P19099); MST; pH 7.4, 25 °C, oxidized, single-site model): 14 nM

For quick reference, copied from above:
B6 (asprosin mature) — Kd (PTPRD extracellular domain 21-1265, RED-tris-NTA dye label (UniProt P23468); MST): 4.2 nM
RAVTQYLLHLLQKARPTSQ (Clr3 peptide (Schizosaccharomyces pombe)) — Kd (Chp2 chromoshadow domain (Schizosaccharomyces pombe); NMR titration; peptide; pH 7.8, 303 K, KCl 150 mM): > 745000 nM
